Measured values from different studies.
Each numbered part is a random draw from the data of one study; scales do not carry over between parts.
UniProt P10721, sequence (whole entry, looked up): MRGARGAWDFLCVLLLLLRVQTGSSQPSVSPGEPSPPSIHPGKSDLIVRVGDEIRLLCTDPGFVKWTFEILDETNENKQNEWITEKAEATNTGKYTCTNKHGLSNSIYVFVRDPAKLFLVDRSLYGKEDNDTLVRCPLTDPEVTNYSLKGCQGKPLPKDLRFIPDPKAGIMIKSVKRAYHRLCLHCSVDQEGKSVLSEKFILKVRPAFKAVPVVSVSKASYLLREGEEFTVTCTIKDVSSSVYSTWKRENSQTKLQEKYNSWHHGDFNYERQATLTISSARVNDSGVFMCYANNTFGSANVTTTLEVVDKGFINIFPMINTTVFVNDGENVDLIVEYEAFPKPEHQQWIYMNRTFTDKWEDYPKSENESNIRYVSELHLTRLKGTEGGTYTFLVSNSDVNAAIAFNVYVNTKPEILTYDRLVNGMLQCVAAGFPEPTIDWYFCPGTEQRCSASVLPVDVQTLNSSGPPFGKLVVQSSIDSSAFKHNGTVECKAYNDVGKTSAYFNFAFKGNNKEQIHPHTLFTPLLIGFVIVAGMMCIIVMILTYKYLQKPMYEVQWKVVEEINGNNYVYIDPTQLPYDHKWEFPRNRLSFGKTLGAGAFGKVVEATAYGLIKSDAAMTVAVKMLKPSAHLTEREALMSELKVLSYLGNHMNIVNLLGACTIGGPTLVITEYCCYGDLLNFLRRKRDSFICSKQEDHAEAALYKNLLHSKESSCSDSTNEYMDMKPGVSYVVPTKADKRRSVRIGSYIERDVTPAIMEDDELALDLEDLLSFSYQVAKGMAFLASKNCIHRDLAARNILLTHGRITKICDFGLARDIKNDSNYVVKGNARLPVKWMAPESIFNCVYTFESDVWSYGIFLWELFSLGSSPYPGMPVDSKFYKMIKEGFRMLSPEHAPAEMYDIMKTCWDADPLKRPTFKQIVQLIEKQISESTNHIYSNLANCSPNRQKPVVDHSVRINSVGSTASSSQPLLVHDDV
UniProt Q8IVW4, sequence (whole entry, looked up): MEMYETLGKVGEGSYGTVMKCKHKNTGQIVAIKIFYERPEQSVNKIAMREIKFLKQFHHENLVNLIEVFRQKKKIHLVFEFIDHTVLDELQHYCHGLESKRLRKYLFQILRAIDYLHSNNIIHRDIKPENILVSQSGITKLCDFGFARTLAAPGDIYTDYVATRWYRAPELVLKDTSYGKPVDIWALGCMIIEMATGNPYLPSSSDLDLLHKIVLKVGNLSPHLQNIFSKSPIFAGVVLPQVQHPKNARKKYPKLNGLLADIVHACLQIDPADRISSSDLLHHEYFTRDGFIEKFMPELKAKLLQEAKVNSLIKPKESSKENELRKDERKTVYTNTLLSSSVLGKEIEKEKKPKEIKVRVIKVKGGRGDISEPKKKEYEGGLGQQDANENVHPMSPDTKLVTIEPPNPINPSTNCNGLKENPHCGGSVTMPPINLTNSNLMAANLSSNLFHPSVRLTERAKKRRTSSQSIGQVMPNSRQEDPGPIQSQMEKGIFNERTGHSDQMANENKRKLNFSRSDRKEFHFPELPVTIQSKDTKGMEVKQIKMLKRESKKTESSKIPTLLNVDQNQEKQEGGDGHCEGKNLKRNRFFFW
UniProt P42336, sequence (whole entry, unmodified, looked up): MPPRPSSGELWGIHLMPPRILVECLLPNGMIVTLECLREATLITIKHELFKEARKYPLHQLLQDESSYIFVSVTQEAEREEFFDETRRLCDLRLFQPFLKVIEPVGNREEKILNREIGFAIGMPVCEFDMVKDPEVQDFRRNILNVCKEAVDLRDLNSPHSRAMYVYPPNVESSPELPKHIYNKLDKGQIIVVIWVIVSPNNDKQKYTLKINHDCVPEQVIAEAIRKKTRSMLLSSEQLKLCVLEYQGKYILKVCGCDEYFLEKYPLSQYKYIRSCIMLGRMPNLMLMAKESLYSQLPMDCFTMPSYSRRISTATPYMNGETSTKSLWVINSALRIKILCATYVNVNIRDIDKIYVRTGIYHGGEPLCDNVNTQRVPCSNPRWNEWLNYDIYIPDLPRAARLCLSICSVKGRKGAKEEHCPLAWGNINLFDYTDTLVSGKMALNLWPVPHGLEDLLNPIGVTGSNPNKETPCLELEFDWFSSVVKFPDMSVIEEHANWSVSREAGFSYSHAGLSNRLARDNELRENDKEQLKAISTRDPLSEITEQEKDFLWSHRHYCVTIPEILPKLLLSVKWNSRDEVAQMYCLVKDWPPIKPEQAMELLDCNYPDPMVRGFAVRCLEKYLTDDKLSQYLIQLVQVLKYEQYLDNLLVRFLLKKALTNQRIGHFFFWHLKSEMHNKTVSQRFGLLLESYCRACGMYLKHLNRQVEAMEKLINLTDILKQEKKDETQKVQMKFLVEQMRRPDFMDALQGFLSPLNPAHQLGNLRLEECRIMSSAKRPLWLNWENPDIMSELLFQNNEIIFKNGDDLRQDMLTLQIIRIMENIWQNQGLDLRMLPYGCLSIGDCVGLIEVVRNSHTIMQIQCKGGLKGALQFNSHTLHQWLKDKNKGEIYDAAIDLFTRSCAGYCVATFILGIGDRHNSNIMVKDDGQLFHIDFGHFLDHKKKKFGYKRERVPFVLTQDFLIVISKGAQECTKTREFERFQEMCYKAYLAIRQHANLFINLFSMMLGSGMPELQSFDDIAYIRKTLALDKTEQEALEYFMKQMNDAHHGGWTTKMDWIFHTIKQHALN
UniProt P54764, sequence (whole entry, looked up): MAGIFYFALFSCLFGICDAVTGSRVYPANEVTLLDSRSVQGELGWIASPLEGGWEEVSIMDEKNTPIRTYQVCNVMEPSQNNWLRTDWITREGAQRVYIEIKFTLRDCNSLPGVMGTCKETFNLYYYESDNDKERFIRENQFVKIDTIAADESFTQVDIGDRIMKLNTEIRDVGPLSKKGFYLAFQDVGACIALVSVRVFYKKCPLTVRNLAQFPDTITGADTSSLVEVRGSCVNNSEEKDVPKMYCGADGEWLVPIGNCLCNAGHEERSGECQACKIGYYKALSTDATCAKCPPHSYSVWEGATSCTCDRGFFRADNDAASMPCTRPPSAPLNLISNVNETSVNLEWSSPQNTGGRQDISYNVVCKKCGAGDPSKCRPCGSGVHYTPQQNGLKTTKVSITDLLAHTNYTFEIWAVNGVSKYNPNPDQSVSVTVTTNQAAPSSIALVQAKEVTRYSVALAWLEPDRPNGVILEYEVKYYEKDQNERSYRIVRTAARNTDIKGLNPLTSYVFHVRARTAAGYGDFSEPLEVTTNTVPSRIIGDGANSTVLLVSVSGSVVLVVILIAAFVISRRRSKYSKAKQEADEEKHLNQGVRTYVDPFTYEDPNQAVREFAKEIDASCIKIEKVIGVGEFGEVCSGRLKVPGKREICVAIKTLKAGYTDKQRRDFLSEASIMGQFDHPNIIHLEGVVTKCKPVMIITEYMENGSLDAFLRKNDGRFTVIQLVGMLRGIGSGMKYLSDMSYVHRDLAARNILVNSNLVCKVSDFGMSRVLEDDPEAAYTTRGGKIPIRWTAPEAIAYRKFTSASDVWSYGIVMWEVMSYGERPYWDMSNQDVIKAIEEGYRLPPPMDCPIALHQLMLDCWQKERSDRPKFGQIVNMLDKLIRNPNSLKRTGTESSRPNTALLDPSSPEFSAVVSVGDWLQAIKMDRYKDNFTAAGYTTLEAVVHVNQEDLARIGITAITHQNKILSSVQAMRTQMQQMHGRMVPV
UniProt Q07912, sequence (whole entry, looked up): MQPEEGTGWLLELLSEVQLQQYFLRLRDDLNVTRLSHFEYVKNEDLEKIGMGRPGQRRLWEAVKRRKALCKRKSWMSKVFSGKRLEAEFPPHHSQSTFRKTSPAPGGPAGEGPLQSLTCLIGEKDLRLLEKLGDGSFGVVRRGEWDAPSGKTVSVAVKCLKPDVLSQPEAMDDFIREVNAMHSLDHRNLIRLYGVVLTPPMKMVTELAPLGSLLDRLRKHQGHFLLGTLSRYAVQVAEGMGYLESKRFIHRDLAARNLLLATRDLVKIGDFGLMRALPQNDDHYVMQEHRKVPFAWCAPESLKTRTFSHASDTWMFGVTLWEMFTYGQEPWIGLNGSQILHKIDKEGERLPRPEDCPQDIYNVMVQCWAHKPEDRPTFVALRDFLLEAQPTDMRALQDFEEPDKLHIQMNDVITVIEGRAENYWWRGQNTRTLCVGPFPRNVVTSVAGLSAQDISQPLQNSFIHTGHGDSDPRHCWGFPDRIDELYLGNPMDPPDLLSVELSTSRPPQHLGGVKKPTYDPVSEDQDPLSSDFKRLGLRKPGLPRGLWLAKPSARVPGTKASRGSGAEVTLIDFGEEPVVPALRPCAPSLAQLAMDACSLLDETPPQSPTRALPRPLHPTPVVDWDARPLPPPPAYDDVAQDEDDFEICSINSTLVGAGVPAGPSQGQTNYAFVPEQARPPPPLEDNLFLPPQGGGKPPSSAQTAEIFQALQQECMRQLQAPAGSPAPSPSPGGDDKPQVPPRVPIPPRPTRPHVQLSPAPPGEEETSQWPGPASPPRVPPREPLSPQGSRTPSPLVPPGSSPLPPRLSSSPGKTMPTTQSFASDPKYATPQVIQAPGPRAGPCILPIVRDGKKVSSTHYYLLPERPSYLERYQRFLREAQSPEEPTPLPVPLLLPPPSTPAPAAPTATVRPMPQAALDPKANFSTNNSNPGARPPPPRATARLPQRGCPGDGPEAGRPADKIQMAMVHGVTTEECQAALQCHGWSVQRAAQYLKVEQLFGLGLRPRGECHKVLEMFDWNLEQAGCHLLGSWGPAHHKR
UniProt Q86YV6, sequence (whole entry, looked up): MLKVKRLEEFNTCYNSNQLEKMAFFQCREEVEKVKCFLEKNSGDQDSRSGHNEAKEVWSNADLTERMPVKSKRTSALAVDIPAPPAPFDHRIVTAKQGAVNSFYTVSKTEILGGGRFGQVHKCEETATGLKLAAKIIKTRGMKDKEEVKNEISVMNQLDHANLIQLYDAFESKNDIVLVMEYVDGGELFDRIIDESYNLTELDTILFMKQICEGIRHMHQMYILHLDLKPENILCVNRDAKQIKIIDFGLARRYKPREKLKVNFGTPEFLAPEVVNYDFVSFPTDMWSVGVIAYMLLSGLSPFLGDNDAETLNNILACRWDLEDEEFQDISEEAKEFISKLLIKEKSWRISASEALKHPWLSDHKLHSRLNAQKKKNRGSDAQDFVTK

Sample 1 — Compound: FC(F)(F)c1ccc2c(c1)nc(-c1cccnc1)n2C1CC1; tested at: 1 µM
It gave 96% for remaining binding (Cyclin-dependent kinase-like 3 (CDKL3, Homo sapiens, UniProt Q8IVW4); cell-free assay, competition with immobilised ligand).
The remaining binding was 100% (Dual specificity tyrosine-phosphorylation-regulated kinase 2 (DYRK2, Homo sapiens, UniProt Q92630); cell-free assay, competition with immobilised ligand).
For Tyrosine-protein kinase ABL1, phosphorylated (ABL1, Homo sapiens, UniProt P00519, H396P); cell-free assay, competition with immobilised ligand: remaining binding read 100%.
The remaining binding was 100% (Rhodopsin kinase GRK1 (GRK1, Homo sapiens, UniProt Q15835); cell-free assay, competition with immobilised ligand).
It gave 100% for remaining binding (Cyclin-dependent kinase-like 2 (CDKL2, Homo sapiens, UniProt Q92772); cell-free assay, competition with immobilised ligand).
The remaining binding was 100% (Inhibitor of nuclear factor kappa-B kinase subunit beta (IKBKB, Homo sapiens, UniProt O14920); cell-free assay, competition with immobilised ligand).
For NT-3 growth factor receptor (NTRK3, Homo sapiens, UniProt Q16288); cell-free assay, competition with immobilised ligand: remaining binding read 100%.
The remaining binding was 93% (eIF-2-alpha kinase GCN2, C-terminal kinase domain (EIF2AK4, Homo sapiens, UniProt Q9P2K8, S808G); cell-free assay, competition with immobilised ligand).
For Mast/stem cell growth factor receptor Kit, autoinhibited (KIT, Homo sapiens, UniProt P10721); cell-free assay, competition with immobilised ligand: remaining binding read 85%.
The remaining binding was 100% (Transient receptor potential cation channel subfamily M member 6 (TRPM6, Homo sapiens, UniProt Q9BX84); cell-free assay, competition with immobilised ligand).
For Ribosomal protein S6 kinase alpha-6, N-terminal kinase domain (RPS6KA6, Homo sapiens, UniProt Q9UK32); cell-free assay, competition with immobilised ligand: remaining binding read 100%.
The remaining binding was 100% (Ephrin type-A receptor 4 (EPHA4, Homo sapiens, UniProt P54764); cell-free assay, competition with immobilised ligand).
The remaining binding was 99% (Phosphatidylinositol 4,5-bisphosphate 3-kinase catalytic subunit alpha isoform (PIK3CA, Homo sapiens, UniProt P42336, I800L); cell-free assay, competition with immobilised ligand).
For Serine/threonine-protein kinase Chk2 (CHEK2, Homo sapiens, UniProt O96017); cell-free assay, competition with immobilised ligand: remaining binding read 100%.
Protein kinase C theta type (PRKCQ, Homo sapiens, UniProt Q04759); cell-free assay, competition with immobilised ligand — remaining binding: 100%.
The remaining binding was 100% (Platelet-derived growth factor receptor alpha (PDGFRA, Homo sapiens, UniProt P16234); cell-free assay, competition with immobilised ligand).
The remaining binding was 100% (Fibroblast growth factor receptor 3 (FGFR3, Homo sapiens, UniProt P22607); cell-free assay, competition with immobilised ligand).
Homeodomain-interacting protein kinase 4 (HIPK4, Homo sapiens, UniProt Q8NE63); cell-free assay, competition with immobilised ligand — remaining binding: 100%.
For Tyrosine-protein kinase ABL1, non-phosphorylated (ABL1, Homo sapiens, UniProt P00519, F317I); binding, competition with immobilised ligand: remaining binding read 100%.
For 5'-AMP-activated protein kinase catalytic subunit alpha-1 (PRKAA1, Homo sapiens, UniProt Q13131); cell-free assay, competition with immobilised ligand: remaining binding read 100%.
For Serine/threonine-protein kinase MRCK gamma (CDC42BPG, Homo sapiens, UniProt Q6DT37); binder, KINOMEscan competition binding; baseline: DMSO: remaining binding read 100%.
Serine/threonine-protein kinase WNK1 (WNK1, Homo sapiens, UniProt Q9H4A3); cell-free assay, competition with immobilised ligand — remaining binding: 100%.
The remaining binding was 78% (Serine/threonine-protein kinase PLK4 (PLK4, Homo sapiens, UniProt O00444); cell-free assay, competition with immobilised ligand).
The remaining binding was 100% (Leucine-rich repeat serine/threonine-protein kinase 2 (LRRK2, Homo sapiens, UniProt Q5S007); cell-free assay, competition with immobilised ligand).
For Calcium/calmodulin-dependent protein kinase type 1G (CAMK1G, Homo sapiens, UniProt Q96NX5); cell-free assay, competition with immobilised ligand: remaining binding read 100%.

Sample 2 — tested at: 1 µM
Structure (SMILES): CN1CCN(C(=O)c2ccc(NC(=O)Nc3ccc(N(C)c4ccnc(Nc5ccc(CS(C)(=O)=O)cc5)n4)cc3)cc2)CC1
Ribosomal protein S6 kinase beta-1 (RPS6KB1, Homo sapiens, UniProt P23443); competitive binding; S6K1 — remaining binding: 37%.
Cyclin-dependent kinase 11B (CDK11B, Homo sapiens, UniProt P21127); competitive binding panel, measured: CDC2L1; baseline: vehicle — remaining binding: 67%.
The remaining binding was 23% (TRAF2 and NCK-interacting protein kinase (TNIK, Homo sapiens, UniProt Q9UKE5); competitive binding panel; baseline: vehicle).
For Insulin-like growth factor 1 receptor (IGF1R, Homo sapiens, UniProt P08069); competitive binding panel; baseline: vehicle: remaining binding read 100%.
The remaining binding was 100% (Mitogen-activated protein kinase 6 (MAPK6, Homo sapiens, UniProt Q16659); competitive binding panel, measured: ERK3; baseline: vehicle).
Phosphatidylinositol 4,5-bisphosphate 3-kinase catalytic subunit gamma isoform (PIK3CG, Homo sapiens, UniProt P48736); competitive binding panel; baseline: vehicle — remaining binding: 93%.
Phosphatidylinositol 4,5-bisphosphate 3-kinase catalytic subunit alpha isoform (PIK3CA, Homo sapiens, UniProt P42336, E545A); competitive binding panel; baseline: vehicle — remaining binding: 100%.
Myosin light chain kinase family member 4 (MYLK4, Homo sapiens, UniProt Q86YV6); competitive binding panel; baseline: vehicle — remaining binding: 98%.
It gave 77% for remaining binding (Homeodomain-interacting protein kinase 2 (HIPK2, Homo sapiens, UniProt Q9H2X6); competitive binding panel; baseline: vehicle).
It gave 98% for remaining binding (Serine/threonine-protein kinase OSR1 (OXSR1, Homo sapiens, UniProt O95747); competitive binding panel, measured: OSR1; baseline: vehicle).
For Serine/threonine-protein kinase VRK2 (VRK2, Homo sapiens, UniProt Q86Y07); competitive binding panel; baseline: vehicle: remaining binding read 93%.
It gave 59% for remaining binding (Serine/threonine-protein kinase LATS2 (LATS2, Homo sapiens, UniProt Q9NRM7); competitive binding panel; baseline: vehicle).

Sample 3 — observed: enzyme activity; action: inhibitor; tested at: 0.5 µM; baseline: control
Target: Mast/stem cell growth factor receptor Kit (KIT, Homo sapiens, UniProt P10721)
With `O=C1c2ccccc2-c2n[nH]c3cccc1c23` the remaining activity was 81.9%.
With `Cc1nc2cc3nc(-c4cccs4)cnc3cc2n1C` the remaining activity was 40.4%.
For `COc1cc2c(cc1OC)-c1[nH]nc(Nc3cccc(F)c3)c1C2`, the remaining activity was 27.9%.
With `Ic1cccc(CSc2nnc(-c3ccncc3)o2)c1` the remaining activity was 99.8%.
The remaining activity of `CN([C@@H](Cc1ccc(OS(=O)(=O)c2cccc3cnccc23)cc1)C(=O)N1CCN(c2ccccc2)CC1)S(=O)(=O)c1cccc2cnccc12` is reported as 96.3%.
The remaining activity of `COc1cc2ncnc(Nc3ccc(O)c(Br)c3)c2cc1OC` is reported as 97.3%.
`O=c1cc(-c2cccc3c2Sc2ccccc2S3)oc(N2CCOCC2)c1` gave a remaining activity of 96.8%.
With `c1ccc(-c2[nH]ncc2-c2ccnc3ccccc23)nc1` the remaining activity was 93.5%.
`N#C/C(=C\c1ccc(O)c(O)c1)C(=O)NCc1ccccc1` gave a remaining activity of 93.9%.
`Nc1cccc(-c2cc3c(Oc4cccc(O)c4)ncnc3[nH]2)c1` gave a remaining activity of 35.1%.
`O=C(NC(NC(=S)Nc1ccc(F)c([N+](=O)[O-])c1)C(Cl)(Cl)Cl)C(c1ccccc1)c1ccccc1` (centres unmarked) gave a remaining activity of 97.2%.
The remaining activity of `c1ccc(-c2cnc(Nc3ccc(OCCN4CCCC4)cc3)s2)cc1` is reported as 20.3%.
`CCN(CC)CCNC(=O)c1c(C)[nH]c(/C=C2\C(=O)Nc3ccc(Cl)cc32)c1C` has a remaining activity of 28.7%.
`Cn1nc2c3c(cccc31)C(=O)c1ccccc1-2` gave a remaining activity of 86.4%.
For `CCN(CC)C(=O)c1ccc(Nc2nc(OCC3CCCCC3)c3[nH]cnc3n2)cc1`, the remaining activity was 40.7%.
`Cc1cc2ncc(-c3ccccc3)nc2cc1C` has a remaining activity of 63.5%.
With `Cc1cn(-c2cc(NC(=O)c3ccc(C)c(Nc4nccc(-c5cccnc5)n4)c3)cc(C(F)(F)F)c2)cn1` the remaining activity was 55.2%.
With `COc1cc2ncnc(Nc3cccc(Cl)c3)c2cc1OC` the remaining activity was 94%.
`CCN(CC)CCNC(=O)c1c(C)[nH]c(/C=C2\C(=O)Nc3ccc(F)cc32)c1C` has a remaining activity of 8.74%.
The remaining activity of `CN(C)C[C@H]1CCn2c(c(C3=C(c4cn(C)c5ccccc45)C(=O)NC3=O)c3ccccc32)C1` is reported as 92.7%.
`N#Cc1c(NC(=O)c2cccc3ccccc23)sc2c1CCCC2` gave a remaining activity of 84.2%.
`CCOc1nc(NC(=O)Cc2cc(OC)ccc2OC)cc(N)c1C#N` has a remaining activity of 84.6%.
The remaining activity of `O=C1C(Cl)=C(N2C(=O)CCC2=O)C(=O)c2ccccc21` is reported as 84.7%.
`O=C(Nc1cccc(Nc2nccc(Nc3cccc(C(F)(F)F)c3)n2)c1)C1CC1` has a remaining activity of 86.1%.

Sample 4 — action: inhibitor; tested at: 1 µM
Compound: C=CC(=O)N1CCC[C@@H](n2nc(-c3ccc(Oc4ccccc4)cc3)c3c(N)ncnc32)C1
Proto-oncogene tyrosine-protein kinase ROS (ROS1, Homo sapiens, UniProt P08922); enzyme activity — inhibition: 4%.
For Mitogen-activated protein kinase kinase kinase 3 (MAP3K3, Homo sapiens, UniProt Q99759): inhibition read 30%.
For Tyrosine-protein kinase ABL1, phosphorylated (ABL1, Homo sapiens, UniProt P00519, H396P): inhibition read 45%.
For Activated CDC42 kinase 1 (TNK2, Homo sapiens, UniProt Q07912); enzyme activity: inhibition read 76%.
For Non-receptor tyrosine-protein kinase TYK2, JH2 pseudokinase domain (TYK2, Homo sapiens, UniProt P29597): inhibition read 7%.
It gave 0% for inhibition (Cyclin-dependent kinase 8 (CDK8, Homo sapiens, UniProt P49336)).
Cyclin-dependent kinase-like 3 (CDKL3, Homo sapiens, UniProt Q8IVW4); enzyme activity — inhibition: 8%.
The inhibition was 2% (Macrophage colony-stimulating factor 1 receptor, autoinhibited (CSF1R, Homo sapiens, UniProt P07333)).
The inhibition was 4% (Ephrin type-A receptor 6 (EPHA6, Homo sapiens, UniProt Q9UF33)).
It gave 24% for inhibition (Mitogen-activated protein kinase kinase kinase 19 (MAP3K19, Homo sapiens, UniProt Q56UN5); enzyme activity).
Ribosomal protein S6 kinase alpha-4, N-terminal kinase domain (RPS6KA4, Homo sapiens, UniProt O75676) — inhibition: 8%.
Interleukin-1 receptor-associated kinase 1 (IRAK1, Homo sapiens, UniProt P51617); enzyme activity — inhibition: 24%.
For Mitogen-activated protein kinase kinase kinase 1 (MAP3K1, Homo sapiens, UniProt Q13233); enzyme activity: inhibition read 4%.

For quick reference, copied from above (sample 3):
With `Cc1cn(-c2cc(NC(=O)c3ccc(C)c(Nc4nccc(-c5cccnc5)n4)c3)cc(C(F)(F)F)c2)cn1` the remaining activity was 55.2%.
With `COc1cc2ncnc(Nc3cccc(Cl)c3)c2cc1OC` the remaining activity was 94%.
`CCN(CC)CCNC(=O)c1c(C)[nH]c(/C=C2\C(=O)Nc3ccc(F)cc32)c1C` has a remaining activity of 8.74%.
The remaining activity of `CN(C)C[C@H]1CCn2c(c(C3=C(c4cn(C)c5ccccc45)C(=O)NC3=O)c3ccccc32)C1` is reported as 92.7%.
`N#Cc1c(NC(=O)c2cccc3ccccc23)sc2c1CCCC2` gave a remaining activity of 84.2%.
`CCOc1nc(NC(=O)Cc2cc(OC)ccc2OC)cc(N)c1C#N` has a remaining activity of 84.6%.
